Measurements of several laboratories.
± gives the spread as reported.

Structure (SMILES)	target	assay	test system	setting	scale	quantity	result
C[C@@H]1O[C@@H](O[C@H]2[C@H](O[C@H]3CC[C@@]4(C)[C@@H](CC[C@]5(C)[C@@H]4CC=C4[C@@H]6CC(C)(C)CC[C@]6(C(=O)O)CC[C@]45C)[C@]3(C)CO)OC[C@H](O[C@@H]3O[C@H](CO)[C@@H](O)[C@H](O)[C@H]3O)[C@@H]2O)[C@H](O)[C@H](O)[C@H]1O	PPARs	reporter gene, agonist	HepG2 transfected PPRE-luciferase and PPAR	20 h	–	EC50	4.2 ± 1.2 µM
CSCCN(CCSC)CCc1ccccn1	Cu(I)	competition titration	–	10 µM, pH 7.0, ionic strength 0.1, added: Cu(I) 1 µM	higher = stronger binding	pCu	16.2
Cc1sc2ncn(CC(=O)N3CCCC3)c(=O)c2c1-c1cccc(Br)c1	NMDA receptor, mouse	single-channel current, outside-out patch	cortical neurons	50 µM, added: Ca2+ 0.5 mM	–	γ1 conductance level area	67%
CC1OC(Oc2c(-c3ccc(O)cc3)oc3cc(O)cc(O)c3c2=O)C(OC(=O)C=Cc2ccc(O)cc2)C(O)C1OC(=O)C=Cc1ccc(O)cc1 (centres unmarked)	CCR2	macrophage infiltration	mouse, thioglycollate peritonitis, peritoneum	intraperitoneal, 100 mg/kg	–	inhibition	87%
COc1ccc(-c2cc(C(=O)Nc3cccc(Cl)c3C)no2)cc1O	mitochondrial permeability transition pore, mouse	–	isolated mouse liver mitochondria	1.56 µM	reference: untreated	calcium retention capacity ratio	9.59 ± 0.85
O=C(N/N=C/c1ccc2c(ccc[n+]2Cc2ccccc2)c1)N/N=C/c1ccc2c(ccc[n+]2Cc2ccccc2)c1	G-quadruplex DNA 22CTA antiparallel	FRET melting	–	1 µM, K10 buffer, added: DNA 0.2 µM	–	delta Tm	11 to 14 °C
CCCCCCC1N=C(N)N=C(N)N1c1ccc(Cl)cc1 (racemic)	membrane disruption	SYTOX Green uptake	Escherichia coli, ATCC 25922	–	–	EC50	660 µM
Cc1ccc(Cl)cc1NC(=O)c1cc(-c2cccc(O)c2)on1	mitochondrial permeability transition pore, mouse	mitochondrial swelling inhibition	isolated mouse liver mitochondria	added: Ca2+	–	EC50	0.0035 ± 0.0007 µM
C[C@@H](N)C1CCN(S(=O)(=O)c2cccc3cnccc23)CC1	ROCK	MLC2 phosphorylation, inhibitor	HUVEC	50 µM, 1 h then washout, added: LPA	–	duration of action	≤ 1 h
Cc1cc(NC(=O)[C@H](O)c2cc(F)cc(F)c2)ccc1-c1cnc(N)c(C(=O)NC(C)C)c1	phospho-PERK	refers to: pPERK/PERK ratio	mouse 786-O xenograft, tumour	30 mg/kg, 1 h	–	inhibition	~90%
CC(=O)N[C@@H](Cc1ccc(O)cc1)CN(CC(=O)N[C@@H](CCCCN)CN(CC(=O)N[C@@H](Cc1ccccc1)CN(CC(=O)N[C@H]1CCCCNc2c(F)c(F)c(c(F)c2F)S(=O)(=O)c2c(F)c(F)c(c(F)c2F)NCCCC[C@@H](CN(CC(=O)N[C@@H](C)CN(CC(N)=O)S(=O)(=O)CCN)S(C)(=O)=O)NC(=O)CN(S(=O)(=O)CC(C)C)C[C@H](CC(C)C)NC(=O)CN(S(=O)(=O)CCN)C1)S(=O)(=O)CC(C)C)S(=O)(=O)CCN)S(C)(=O)=O	CREB	reporter gene, inhibitor, CRE Renilla luciferase	HEK-293T	30 min, added: forskolin 10 µM for 5 h	–	IC50	> 100 µM
O=C(O)C1OC(OC2C(COS(=O)(=O)O)OC(OC3C(C(=O)O)OC(OC4C(COS(=O)(=O)O)OC(OC5C(C(=O)O)OC(OC6C(COS(=O)(=O)O)OC(OC7C(C(=O)O)OC(OC8C(COS(=O)(=O)O)OC(OC9C(C(=O)O)OC(OC%10C(COS(=O)(=O)O)OC(OC%11C(C(=O)O)OC(Oc%12ccc([N+](=O)[O-])cc%12)C(O)C%11O)C(NS(=O)(=O)O)C%10O)C(OS(=O)(=O)O)C9O)C(NS(=O)(=O)O)C8O)C(OS(=O)(=O)O)C7O)C(NS(=O)(=O)O)C6O)C(OS(=O)(=O)O)C5O)C(NS(=O)(=O)O)C4O)C(OS(=O)(=O)O)C3O)C(NS(=O)(=O)O)C2OS(=O)(=O)O)C(O)C(O)C1OC1OC(COS(=O)(=O)O)C(O)C(O)C1NS(=O)(=O)O (centres unmarked)	human factor Xa	anti-factor Xa activity, chromogenic	human plasma	–	–	IC50	0.057 µg/mL
CN1CCN(C(=O)c2ccc(-c3ccc4c(c3)/C(=C/c3ccc(N5CCOCC5)cc3)C(=O)N4)cc2)CC1	FGFR3	–	–	–	reference: IC50 FGFR3 over lowest IC50	selectivity ratio	1
CC(=O)N[C@@H](Cc1ccc(O)cc1)CN(CC(=O)N[C@@H](CCCCN)CN(CC(=O)N[C@@H](Cc1ccccc1)CN(CC(=O)N[C@H]1CCCCNc2c(F)c(F)c(c(F)c2F)S(=O)(=O)c2c(F)c(F)c(c(F)c2F)NCCCC[C@@H](CN(CC(=O)N[C@@H](C)CN(CC(N)=O)S(C)(=O)=O)S(C)(=O)=O)NC(=O)CN(S(=O)(=O)c2ccc3ccccc3c2)C[C@H](Cc2ccccc2)NC(=O)CN(S(=O)(=O)CCN)C1)S(=O)(=O)CC(C)C)S(=O)(=O)CCN)S(C)(=O)=O	CREB	reporter gene, inhibitor, CRE Renilla luciferase	HEK-293T	30 min, added: forskolin 10 µM for 5 h	–	IC50	38.1 ± 7.02 µM
CCCCCCCCCCCCCCCCn1cc[n+](Cc2ccccc2)c1C	none	hGrx1-roGFP2 reporter	Trypanosoma brucei brucei bloodstream	2-fold EC50, 4 h, added: menadione 250 µM, 20 min	–	biosensor reduction	62%
CC(=O)Nc1ccc(Sc2ncccc2C(=O)Nc2ccc(F)cc2)cn1	P2Y receptors, human	IP1 accumulation, positive allosteric modulator	HEK293 parental	added: ATP	–	span	43 nM
CC[C@H](C)[C@H](NC(=O)[C@H](CCC(=O)O)NC(=O)[C@H](CO)NC(=O)[C@@H](NC(=O)[C@@H](N)CO)C(C)C)C(=O)N[C@@H](CCC(N)=O)C(=O)N[C@@H](CC(C)C)C(=O)N[C@@H](CCSC)C(=O)N[C@@H](Cc1c[nH]cn1)C(=O)N[C@@H](CC(N)=O)C(=O)N[C@@H](CC(C)C)C(=O)NCC(=O)N[C@@H](CCCCN)C(=O)N[C@@H](Cc1c[nH]cn1)C(=O)N[C@@H](CC(C)C)C(=O)N[C@@H](CC(N)=O)C(=O)N[C@@H](CO)C(=O)N[C@@H](CCSC)C(=O)N[C@@H](CCC(=O)O)C(=O)N[C@@H](CCCNC(=N)N)C(=O)N[C@H](C(=O)N[C@@H](CCC(=O)O)C(=O)N[C@@H](Cc1c[nH]c2ccccc12)C(=O)N[C@@H](CC(C)C)C(=O)N[C@@H](CCCNC(=N)N)C(=O)N[C@@H](CCCCN)C(=O)N[C@@H](CCCCN)C(=O)N[C@@H](CC(C)C)C(=O)N[C@@H](CCC(N)=O)C(=O)N[C@@H](CC(=O)O)C(=O)N[C@H](C(=O)N[C@@H](Cc1c[nH]cn1)C(=O)N[C@@H](CC(N)=O)C(=O)N[C@@H](Cc1ccccc1)C(=O)O)C(C)C)C(C)C	PTH1 receptor	cAMP level, Epac FRET sensor	HEK293 expressing dynamin K44A	concentration not given, after ligand washout	up to	time to diminished cAMP	~5 min
CC(=O)N[C@@H](Cc1ccc(O)cc1)CN(CC(=O)N[C@@H](CCCCN)CN(CC(=O)N[C@@H](Cc1ccccc1)CN(CC(=O)N[C@H]1CCCCNc2c(F)c(F)c(c(F)c2F)S(=O)(=O)c2c(F)c(F)c(c(F)c2F)NCCCC[C@@H](CN(CC(N)=O)S(C)(=O)=O)NC(=O)CN(S(=O)(=O)CC(C)C)C[C@H](CC(C)C)NC(=O)CN(S(=O)(=O)CCN)C1)S(=O)(=O)CC(C)C)S(=O)(=O)CCN)S(C)(=O)=O	CREB	reporter gene, inhibitor, CRE Renilla luciferase	HEK-293T	30 min, added: forskolin 10 µM for 5 h	–	IC50	64 ± 22.3 µM
O=C(Cn1ccnc1)N[C@H]1C[C@@H]1c1ccc(OCc2ccccc2)cc1	aromatase (CYP19), recombinant	absorption spectroscopy	–	no androstenedione	–	Soret peak wavelength	424 nm
CC[C@H](NC(=O)[C@H](CC(C)C)NC(=O)NCc1ccccc1)C(=O)C(=O)NCc1cccc(Cl)c1OC	calpain	–	–	concentration not given, single separated diastereoisomer	–	calpain inhibition	active

For quick reference, copied from above:
Structure (SMILES)	target	assay	test system	setting	scale	quantity	result
COc1ccc(-c2cc(C(=O)Nc3cccc(Cl)c3C)no2)cc1O	mitochondrial permeability transition pore, mouse	–	isolated mouse liver mitochondria	1.56 µM	reference: untreated	calcium retention capacity ratio	9.59 ± 0.85
O=C(N/N=C/c1ccc2c(ccc[n+]2Cc2ccccc2)c1)N/N=C/c1ccc2c(ccc[n+]2Cc2ccccc2)c1	G-quadruplex DNA 22CTA antiparallel	FRET melting	–	1 µM, K10 buffer, added: DNA 0.2 µM	–	delta Tm	11 to 14 °C
